Measurements gathered from unrelated publications.
Protocols differ between the studies behind these lines. ± marks the error that the study gave.

`O=C(NCC1OC2CCC=CCCC2O1)c1ccc([18F])nc1` (centres unmarked) gave a tissue uptake of 0.9 ± 0.2 %ID/g (female BALB/c nude mice, bone; intravenous, 60 min).
With `CCCC[C@@H]1NC(=O)[C@@H](NC(=O)[C@H](CCC(=O)O)NC(=O)CNC(=O)CN2CCN(CC(=O)O)CCN(CC(=O)O)CCN(CC(=O)O)CC2)CCCCNC(=O)C[C@@H](C(N)=O)NC(=O)[C@H](C(C)C)NC(=O)[C@@H]2CCCN2C(=O)[C@H](CCCNC(=N)N)NC(=O)CNC(=O)[C@H](Cc2c[nH]c3ccccc23)NC(=O)[C@H](CCCNC(=N)N)NC(=O)[C@@H](Cc2ccccc2)NC(=O)[C@H](Cc2c[nH]cn2)NC(=O)[C@H](CCC(=O)O)NC1=O` [gallium-67 labelled] the tissue uptake was 32 ± 5.35 %ID/g (normal C57 mice, kidneys; intravenous, 0.037 MBq/mouse, 4 h).
The tissue uptake of `O=C([O-])CN1CCN(CC(=O)[O-])CCN(CC(=O)[O-])CCN(CC(=O)[O-])CC1.[64Cu+2]` is reported as 0.37 %ID/g (healthy athymic nude mice, heart; intravenous, 1 h).
`CC(C)[C@H](NC(=O)[C@@H]1CCCN1C(=O)[C@H](CCCNC(=N)N)NC(=O)[C@H](CS)NC(=O)[C@H](Cc1c[nH]c2ccccc12)NC(=O)[C@H](CCCNC(=N)N)NC(=O)[C@@H](Cc1ccccc1)NC(=O)[C@H](Cc1c[nH]cn1)NC(=O)[C@H](CCC(=O)O)NC(=O)[C@H](CS)NC(=O)[C@H](CS)NC(=O)CNC(=O)[C@@H]1CC(=O)N[C@@H](CCCNC(=N)N)C(=O)NCC(=O)N[C@@H](CC(=O)O)C(=O)N[C@H](Cc2ccc(O)cc2)C(=O)N1)C(N)=O` [technetium-99m labelled] has a tissue uptake of 0.42 ± 0.21 %ID/g (C57 mice B16/F1 melanoma female, pancreas; iv, 2 h, together with: NDP-MSH 10 µg co-injected).
The tissue uptake of `O=C([O-])c1cccc(CN(CCN(Cc2cn(Cc3ccccc3)nn2)Cc2cccc(C(=O)[O-])n2)Cc2cn(Cc3ccccc3)nn2)n1.[64Cu+2]` is reported as 5.18 %ID/g (healthy athymic nude mice, small intestine; intravenous, 4 h).
`CN1C(=O)[C@@H](Cc2ccc(O)c(I)c2)NC(=O)CNC(=O)[C@H](Cc2ccc3ccccc3c2)NC(=O)[C@H](CCCNC(=N)N)NC(=O)[C@H]1CCCNC(=O)c1ccc(CNC(=O)CN2CCN(CC(=O)O)CCN(CC(=O)O)CCN(CC(=O)O)CC2)cc1` [lutetium-177 labelled] has a tissue uptake of 0.12 ± 0.02 %ID/g (item: 177Lu radioactivity; female CB-17 SCID mice, Daudi xenograft, stomach; intravenous, 0.16 nmol per mouse, 48 h).
The tissue uptake of `N=C(N)NCCC[C@@H]1NC(=O)[C@H](CCCCNC(=O)CON=C[C@H](F)[C@@H](O)[C@H](O)[C@H](O)CO)NC(=O)[C@@H](Cc2ccc(O)cc2)NC(=O)[C@H](CC(=O)O)NC(=O)CNC1=O` [fluorine-18 labelled] is reported as 0.17 ± 0.03 %ID/g (nude mice U-87 MG tumour, stomach; intravenous, 0.5 h).
With `CCCC[C@H](NC(=O)CNC(=O)CNC(=O)CN1CCN(CC(=O)O)CCN(CC(=O)O)CC1)C(=O)N[C@H]1CC(=O)NCCCC[C@@H](C(N)=O)NC(=O)[C@H](Cc2c[nH]c3ccccc23)NC(=O)[C@H](CCCNC(=N)N)NC(=O)[C@@H](Cc2ccccc2)NC(=O)[C@H](Cc2c[nH]cn2)NC1=O` [gallium-67 labelled] the tissue uptake was 0.88 ± 0.31 %ID/g (female C57 mice, B16/F1 melanoma, pancreas; intravenous, 0.037 MBq, 24 h).
For `CCCC[C@H](NC(=O)CN1CCC(NC(=O)CN2CCN(CC(=O)O)CCN(CC(=O)O)CCN(CC(=O)O)CC2)CC1)C(=O)N[C@H]1CC(=O)NCCCC[C@@H](C(N)=O)NC(=O)[C@H](Cc2c[nH]c3ccccc23)NC(=O)[C@H](CCCNC(=N)N)NC(=O)[C@@H](Cc2ccccc2)NC(=O)[C@H](Cc2c[nH]cn2)NC1=O` [gallium-68 labelled], the tissue uptake was 0.4 ± 0.1 %ID/g (C57BL/6J mice male B16-F10 tumour, lungs; 2 h post injection, unblocked).
With `CCCC[C@H](NC(=O)CNC(=O)CNC(=O)CN1CCN(CC(=O)O)CCN(CC(=O)O)CCN(CC(=O)O)CC1)C(=O)N[C@H]1CC(=O)NCCCC[C@@H](C(N)=O)NC(=O)[C@H](Cc2c[nH]c3ccccc23)NC(=O)[C@H](CCCNC(=N)N)NC(=O)[C@@H](Cc2ccccc2)NC(=O)[C@H](Cc2c[nH]cn2)NC1=O` [gallium-67 labelled] the tissue uptake was 0.98 ± 0.18 %ID (C57 mice, female, B16/F1 melanoma, intestines; intravenous, 0.037 MBq, 4 h).
`N=C(N)NCCC[C@H](NC(=O)CON=C[C@H](F)[C@@H](O)[C@H](O)[C@H](O)CO)C(=O)NCC(=O)N[C@@H](CC(=O)O)C(=O)O` [fluorine-18 labelled] gave a tissue uptake of 0.22 ± 0.04 %ID/g (nude mice U-87 MG tumour, liver; intravenous, 2 h).

For quick reference, copied from above:
The tissue uptake of `O=C([O-])c1cccc(CN(CCN(Cc2cn(Cc3ccccc3)nn2)Cc2cccc(C(=O)[O-])n2)Cc2cn(Cc3ccccc3)nn2)n1.[64Cu+2]` is reported as 5.18 %ID/g (healthy athymic nude mice, small intestine; intravenous, 4 h).
For `CCCC[C@H](NC(=O)CN1CCC(NC(=O)CN2CCN(CC(=O)O)CCN(CC(=O)O)CCN(CC(=O)O)CC2)CC1)C(=O)N[C@H]1CC(=O)NCCCC[C@@H](C(N)=O)NC(=O)[C@H](Cc2c[nH]c3ccccc23)NC(=O)[C@H](CCCNC(=N)N)NC(=O)[C@@H](Cc2ccccc2)NC(=O)[C@H](Cc2c[nH]cn2)NC1=O` [gallium-68 labelled], the tissue uptake was 0.4 ± 0.1 %ID/g (C57BL/6J mice male B16-F10 tumour, lungs; 2 h post injection, unblocked).
